Experimental data pooled from the literature.
Each line is one published result; not all experiments were run side by side. Numbers after ± are the reported error. Converted amounts (≈) assume the structure as drawn.
Organism: Pseudomonas aeruginosa

SMILES | test | system | setting | how to read | endpoint | value
CC[C@H](C)[C@H](NC(=O)[C@H](CCCCN)NC(=O)[C@H](CCCCN)NC(=O)[C@H](CC(C)C)NC(=O)[C@H](CCCCN)NC(=O)[C@H](CCC(=O)O)NC(=O)[C@H](CCCCN)NC(=O)[C@@H](NC(=O)[C@H](CCCCN)NC(=O)[C@H](CC(N)=O)NC(=O)[C@H](CCCNC(=N)N)NC(=O)[C@H](Cc1ccccc1)NC(=O)[C@H](CCCCN)NC(=O)[C@H](CCCNC(=N)N)NC(=O)[C@H](CC(C)C)NC(=O)[C@H](CCCNC(=N)N)NC(=O)[C@H](CCCCN)NC(=O)[C@H](CCCNC(=N)N)NC(=O)[C@H](CC(C)C)NC(=O)[C@@H](N)CC(C)C)[C@@H](C)CC)C(=O)NCC(=O)N[C@@H](CCC(N)=O)C(=O)N[C@@H](CCCCN)C(=O)N[C@H](C(=O)N[C@@H](CCC(N)=O)C(=O)NCC(=O)N[C@@H](Cc1ccccc1)C(=O)N[C@H](C(=O)N1CCC[C@H]1C(=O)N[C@@H](CCCCN)C(=O)N[C@@H](CC(C)C)C(=O)N[C@H](C(=O)N1CCC[C@H]1C(=O)N[C@@H](CCCNC(=N)N)C(=O)N[C@H](C(=O)N[C@@H](CCC(=O)O)C(=O)N[C@@H](CO)C(=O)O)[C@@H](C)O)C(C)C)C(C)C)[C@@H](C)CC | inhibition zone method | 11082603, LB 0.8% agar with 154 mM NaCl | overnight, 37 °C | – | lethal concentration | 2.89 µM
CC[C@H](C)[C@H](NC(=O)[C@H](Cc1c[nH]cn1)NC(=O)[C@H](CCCCNC(=O)[C@@H](NC(=O)[C@H](CCCCN)NC(=O)CSC[C@H](NC(=O)[C@H](Cc1ccccc1)NC(=O)[C@H](CCCCNC(=O)[C@H](CC(C)C)NC(=O)[C@@H]1CCCN1C(=O)[C@H](CCCCN)NC(=O)c1ccc(O[C@@H]2O[C@H](CO)[C@H](O)[C@H](O)[C@H]2O)cc1)NC(=O)[C@H](CC(C)C)NC(=O)[C@@H]1CCCN1C(=O)[C@H](CCCCN)NC(=O)C[C@@H]1O[C@@H](C)[C@@H](O)[C@@H](O)[C@@H]1O)C(N)=O)[C@@H](C)CC)NC(=O)[C@@H](NC(=O)[C@H](CCCCN)NC(=O)CSC[C@H](NC(=O)[C@H](Cc1ccccc1)NC(=O)[C@H](CCCCNC(=O)[C@H](CC(C)C)NC(=O)[C@@H]1CCCN1C(=O)[C@H](CCCCN)NC(=O)c1ccc(O[C@@H]2O[C@H](CO)[C@H](O)[C@H](O)[C@H]2O)cc1)NC(=O)[C@H](CC(C)C)NC(=O)[C@@H]1CCCN1C(=O)[C@H](CCCCN)NC(=O)C[C@@H]1O[C@@H](C)[C@@H](O)[C@@H](O)[C@@H]1O)C(N)=O)[C@@H](C)CC)C(N)=O | – | PAO1 | biofilm-forming conditions | – | MBC | > 45 µM
CC[C@@H](C)[C@@H](NC(=O)[C@@H](C)NC(=O)[C@@H](CCCCN)NC(=O)[C@@H](CC(C)C)NC(=O)[C@@H](C)NC(=O)[C@H](NC(=O)[C@@H](Cc1c[nH]cn1)NC(=O)[C@@H](CC(C)C)NC(=O)[C@H](NC(=O)[C@H](NC(=O)[C@@H](CCCCN)NC(=O)[C@@H](CCCCN)NC(=O)[C@@H](C)NC(=O)[C@@H](CO)NC(=O)[C@@H](CCCCN)NC(=O)[C@@H](Cc1ccccc1)NC(=O)[C@H](NC(=O)[C@@H](CCCCN)NC(=O)[C@@H](CC(C)C)NC(=O)[C@@H](Cc1ccccc1)NC(=O)[C@@H](CO)NC(=O)[C@@H](CCCCN)NC(=O)[C@@H](Cc1c[nH]c2ccccc12)NC(=O)[C@@H](CCCCN)NC(C)=O)[C@H](C)O)[C@H](C)O)C(C)C)[C@H](C)O)C(=O)N[C@H](CO)C(=O)N[C@H](CO)C(N)=O | – | six isolates | – | relative to: HC50 over geometric mean MIC | therapeutic index | 34.4
CC[C@H](C)[C@H](NC(=O)[C@H](CCCCN)NC(=O)[C@H](CCCCN)NC(=O)[C@H](CC(C)C)NC(=O)[C@H](CCCCN)NC(=O)[C@H](CCC(=O)O)NC(=O)[C@H](CCCCN)NC(=O)[C@@H](NC(=O)[C@H](CCCCN)NC(=O)[C@H](CC(N)=O)NC(=O)[C@H](CCCNC(=N)N)NC(=O)[C@H](Cc1ccccc1)NC(=O)[C@H](CCCCN)NC(=O)[C@H](CCCNC(=N)N)NC(=O)[C@H](CC(C)C)NC(=O)[C@H](CCCNC(=N)N)NC(=O)[C@H](CCCCN)NC(=O)[C@H](CCCNC(=N)N)NC(=O)[C@@H](N)CC(C)C)[C@@H](C)CC)C(=O)NCC(=O)N[C@@H](CCC(N)=O)C(=O)N[C@@H](CCCCN)C(=O)N[C@H](C(=O)N[C@@H](CCC(N)=O)C(=O)NCC(=O)N[C@@H](Cc1ccccc1)C(=O)N[C@H](C(=O)N1CCC[C@H]1C(=O)N[C@@H](CCCCN)C(=O)N[C@@H](CC(C)C)C(=O)O)C(C)C)[C@@H](C)CC | inhibition zone method | 14, LB 0.8% agar with 154 mM NaCl | overnight, 37 °C | – | lethal concentration | 2.67 µM
Nc1ccccc1C(=O)NS(=O)(=O)NC[C@H]1O[C@@H](n2cnc3c(N)ncnc32)[C@H](O)[C@@H]1O | PQS production, LC-MS/MS | PA14 | 1500 µM, 20 h | – | inhibition | 92%
CC[C@H](C)[C@H](NC(=O)[C@H](Cc1c[nH]cn1)NC(=O)[C@H](CCCCNC(=O)[C@@H](NC(=O)[C@H](CCCCN)NC(=O)CSC[C@H](NC(=O)[C@H](Cc1ccccc1)NC(=O)[C@H](CCCCNC(=O)[C@H](CC(C)C)NC(=O)[C@@H]1CCCN1C(=O)[C@H](CCCCN)NC(=O)C[C@@H]1O[C@@H](C)[C@@H](O)[C@@H](O)[C@@H]1O)NC(=O)[C@H](CC(C)C)NC(=O)[C@@H]1CCCN1C(=O)[C@H](CCCCN)NC(=O)C[C@@H]1O[C@@H](C)[C@@H](O)[C@@H](O)[C@@H]1O)C(N)=O)[C@@H](C)CC)NC(=O)[C@@H](NC(=O)[C@H](CCCCN)NC(=O)CSC[C@H](NC(=O)[C@H](Cc1ccccc1)NC(=O)[C@H](CCCCNC(=O)[C@H](CC(C)C)NC(=O)[C@@H]1CCCN1C(=O)[C@H](CCCCN)NC(=O)C[C@@H]1O[C@@H](C)[C@@H](O)[C@@H](O)[C@@H]1O)NC(=O)[C@H](CC(C)C)NC(=O)[C@@H]1CCCN1C(=O)[C@H](CCCCN)NC(=O)C[C@@H]1O[C@@H](C)[C@@H](O)[C@@H](O)[C@@H]1O)C(N)=O)[C@@H](C)CC)C(N)=O | – | PAO1 | biofilm-forming conditions | – | MBC | > 45 µM
CC[C@H](C)[C@H](NC(=O)CNC(=O)[C@H](CCSC)NC(=O)[C@H](CC(C)C)NC(=O)[C@H](CCCCN)NC(=O)[C@@H](N)CC(C)C)C(=O)N[C@H](C(=O)N[C@@H](CCCCN)C(=O)N[C@@H](CCCCN)C(=O)N[C@H](C(=O)N[C@@H](CC(C)C)C(=O)N[C@@H](CCCCN)C(=O)N[C@@H](C)C(=O)N[C@@H](CC(C)C)C(N)=O)C(C)C)C(C)C | – | PAO1 | concentration not given | relative to: MIC of template peptide over MIC | fold activity increase | 8 fold
C[C@@](O)(C(F)F)[C@H](NC(=O)c1ccc(C#CC#CC2CC2)cc1)C(=O)NO | agar dilution | clinical isolates, susceptible and MDR/XDR | – | – | MIC90 | 1 µg/mL (≈ 2.66 µM)
NCCCC[C@H](NC(=O)[C@@H]1CSCC(=O)N[C@@H](CCCCN)C(=O)N[C@@H](Cc2ccccc2)C(=O)N[C@@H](CCCCN)C(=O)N[C@H]2CCCCNC(=O)[C@H](CCCCN)NC(=O)[C@H](Cc3ccccc3)NC(=O)[C@H](CCCCN)NC(=O)CSC[C@H](NC(=O)[C@H](Cc3ccccc3)NC(=O)[C@H](Cc3ccccc3)NC(=O)[C@H](CCCCN)NC2=O)C(=O)N[C@@H](Cc2ccccc2)C(=O)N[C@@H](Cc2ccccc2)C(=O)N[C@@H](Cc2ccccc2)C(=O)N1)C(N)=O | – | PAO1 | 24 to 25 h | – | minimal biofilm inhibitory concentration | 32 µg/mL
CC[C@H](C)[C@H](NC(=O)[C@H](CCCCN)NC(=O)[C@H](CCCCN)NC(=O)[C@H](CC(C)C)NC(=O)[C@H](CCCCN)NC(=O)[C@H](CCC(=O)O)NC(=O)[C@H](CCCCN)NC(=O)[C@@H](NC(=O)[C@H](CCCCN)NC(=O)[C@H](CC(N)=O)NC(=O)[C@H](CCCNC(=N)N)NC(=O)[C@H](Cc1ccccc1)NC(=O)[C@H](CCCCN)NC(=O)[C@H](CCCNC(=N)N)NC(=O)[C@H](CC(C)C)NC(=O)[C@H](CCCNC(=N)N)NC(=O)[C@H](CCCCN)NC(=O)[C@H](CCCNC(=N)N)NC(=O)[C@H](CC(C)C)NC(=O)[C@@H](N)CCCNC(=N)N)[C@@H](C)CC)C(=O)NCC(=O)N[C@@H](CCC(N)=O)C(=O)N[C@@H](CCCCN)C(=O)N[C@H](C(=O)N[C@@H](CCC(N)=O)C(=O)NCC(=O)N[C@@H](Cc1ccccc1)C(=O)N[C@H](C(=O)N1CCC[C@H]1C(=O)N[C@@H](CCCCN)C(=O)N[C@@H](CC(C)C)C(=O)N[C@@H](CCC(N)=O)C(=O)N1CCC[C@H]1C(=O)N[C@@H](CO)C(=O)N[C@@H](CCCCN)C(=O)N[C@@H](CCC(N)=O)C(=O)N[C@@H](CO)C(=O)O)C(C)C)[C@@H](C)CC | inhibition zone method | 374, LB 0.8% agar with 154 mM NaCl | overnight, 37 °C | – | lethal concentration | 3.89 µM
CC[C@H](C)[C@H](NC(=O)[C@H](CCCNC(=N)N)NC(=O)[C@H](CCCCN)NC(=O)[C@H](CC(C)C)NC(=O)[C@H](CC(C)C)NC(=O)CN)C(=O)N[C@@H](CCCCN)C(=O)N[C@H](C(=O)N[C@@H](CC(C)C)C(=O)N[C@@H](CC(C)C)C(=O)NCCCC[C@H](NC(=O)[C@H](CC(C)C)NC(=O)[C@H](CC(C)C)NC(=O)[C@@H](NC(=O)[C@H](CCCCN)NC(=O)[C@@H](NC(=O)[C@H](CCCNC(=N)N)NC(=O)[C@H](CCCCN)NC(=O)[C@H](CC(C)C)NC(=O)[C@H](CC(C)C)NC(=O)CN)[C@@H](C)CC)[C@@H](C)O)C(N)=O)[C@@H](C)O | checkerboard | ATCC 27853 | added: polymyxin B | – | FIC index | 0.312
CC[C@H](C)[C@H](NC(=O)[C@H](CCCNC(=N)N)NC(=O)[C@@H](NC(=O)[C@H](C)NC(=O)[C@@H](NC(=O)[C@@H](NC(=O)[C@H](CC(C)C)NC(=O)[C@H](CCCNC(=N)N)NC(=O)[C@@H](N)C(C)C)[C@@H](C)CC)C(C)C)C(C)C)C(=O)N[C@@H](Cc1c[nH]c2ccccc12)C(=O)N[C@@H](CCCNC(=N)N)C(=O)N[C@@H](CCCNC(=N)N)C(N)=O | – | PAO1, Galleria mellonella larvae | proleg injection, 20 µg per larva, 48 h post infection, 37 °C, dosed 1 h after infection | – | survival | 3 ± 5%
CC(C)C[C@@H]1NC(=O)CSC[C@@H](C(=O)N[C@@H](CCCCN)C(N)=O)NC(=O)[C@H](CC(C)C)NC(=O)[C@H](CC(C)C)NC(=O)[C@H](CC(C)C)NC(=O)[C@@H]2CSCC(=O)N[C@@H](CC(C)C)C(=O)N[C@@H](CC(C)C)C(=O)N[C@@H](CCCCN)C(=O)N[C@@H](CCCCNC(=O)[C@H](CCCCN)NC(=O)[C@H](CC(C)C)NC1=O)C(=O)N[C@@H](CCCCN)C(=O)N[C@@H](CCCCN)C(=O)N[C@@H](CC(C)C)C(=O)N2 | – | PAO1 | 24 to 25 h | – | minimal biofilm inhibitory concentration | > 32 µg/mL

Excerpt of the above:
SMILES | test | system | setting | how to read | endpoint | value
Nc1ccccc1C(=O)NS(=O)(=O)NC[C@H]1O[C@@H](n2cnc3c(N)ncnc32)[C@H](O)[C@@H]1O | PQS production, LC-MS/MS | PA14 | 1500 µM, 20 h | – | inhibition | 92%
CC[C@H](C)[C@H](NC(=O)CNC(=O)[C@H](CCSC)NC(=O)[C@H](CC(C)C)NC(=O)[C@H](CCCCN)NC(=O)[C@@H](N)CC(C)C)C(=O)N[C@H](C(=O)N[C@@H](CCCCN)C(=O)N[C@@H](CCCCN)C(=O)N[C@H](C(=O)N[C@@H](CC(C)C)C(=O)N[C@@H](CCCCN)C(=O)N[C@@H](C)C(=O)N[C@@H](CC(C)C)C(N)=O)C(C)C)C(C)C | – | PAO1 | concentration not given | relative to: MIC of template peptide over MIC | fold activity increase | 8 fold
